Published values pooled from the literature.
Compare with care: the assays were run in different laboratories. Numbers after ± are the reported error.
Cell line: A549

Compound	effect on	technique	time	notes	added	IC50
CCOC(=O)c1ccc2c(c1)n(CC)[c]([Au-]([Cl])([Cl])[Cl])[n+]2CC	cell growth or viability	crystal violet	72 h			13.2 µM
C#Cc1cccc(Nc2ncnc3cc(OCCOC)c(OCCOC)cc23)c1	cell growth or viability	trypan blue				> 20 µM
Brc1ccc(Nc2nc(NN=Cc3c[nH]c4ccccc34)nc(N3CCOCC3)n2)cc1	cell growth or viability	SRB	5 days			0.1 µM
CCCCn1cc(C(=O)O)c(=O)c2cc(F)c(Nc3ccc(OC)cc3)c(N)c21	cell growth or viability	SRB	72 h			4.91 mg/L
CCCC(=O)Oc1c(C)c(OC)c2c(/C=C/c3ccccc3)c(CC)c(=O)oc2c1C	cell growth or viability	SRB	72 h			> 50 µM
C[N+]1(C)CC[NH2+][Pt-2]1([OH])([Cl])([Cl])[O]C(=O)CCC(=O)OCCO	cell growth or viability	MTT	96 h			319 µM
Nc1nc(-c2ccc(Cl)cc2)c(C(=O)c2ccccc2)[nH]1	cell growth or viability	SRB	24 h			0.247 µM
CC(C)c1cccc(C(C)C)c1N=[C](NCc1ccc(N)cc1)[AuH][Cl]	cell growth or viability					> 100 µM
Cc1ccc(S(=O)(=O)c2c(-c3ccccc3)c3c(C)c4ccccc4n3c3ccccc23)cc1	cell growth or viability	MTT	72 h			14.6 µM
COc1ccc(C([O-])=CC(=O)c2ccc(C(C)(C)C)cc2)cc1.[Cl-].[Ru+2].c1ccc(-c2cccc(-c3ccccn3)n2)nc1	cell growth or viability		72 h	dark		38.5 µM
C=C(C)[C@@H]1CC[C@]2(C(=O)O)CC[C@]3(C)[C@H](CC[C@@H]4[C@@]5(C)CC[C@H](O[C@@H]6O[C@@H](C)[C@H](O)[C@@H](O)[C@H]6OC)C(C)(C)[C@@H]5CC[C@]43C)[C@@H]12	cell growth or viability	fluorescence	48 h			4.2 µM
COc1ccccc1C(=O)c1[nH]c(Cl)c(Cl)c1-n1c(C(=O)c2ccccc2OC)cc(Cl)c1Cl	cell growth or viability	resazurin	24 h			37 mg/L
c1ccc(-n2nc(-c3ccccn3)n[n+]2-c2ccccc2)cc1	cell growth	resazurin				100 ± 10 µM
COCC12CCC(OC)C34C5CC6(O)C(OC)C(=O)C(C5C6O)C(C(OC)C13)C4N(C)C2 (stereo not shown)	cell growth or viability	MTT				19.4 µM
NCCNC(=O)c1ccc2[nH]c(/C(=N/Nc3ccc(F)cc3)c3ccc(O)cc3)nc2c1	cell growth or viability	ATP luminescence	72 h			103 µM
Cc1ccc(C(=O)NCCNC(=O)[C@@]2(C)[C@H](O)CC[C@@]3(C)[C@H]2CC[C@]2(C)[C@@H]3C(=O)C=C3[C@@H]4[C@@H](C)[C@H](C)CC[C@]4(C)CC[C@]32C)cc1	cell growth or viability	MTT	48 h			20.4 µM
CC1=C(Cn2c3cccc(=O)c-3nc3ccccc32)CCC(C)(C)C1	cell growth or viability	CCK-8	72 h			0.38 µM
COc1c(O)cc2oc3cc4c(c(O)c3c(=O)c2c1CC=C(C)C)CC(O)O4 (stereo not shown)	cell growth or viability		48 h			18 µM
CC(=O)O[C@@H]1CC[C@@]2(C)[C@@H](CC[C@]3(C)[C@@H]2C(=O)C=C2[C@@H]4[C@@H](C)[C@H](C)CC[C@]4(C)CC[C@]23C)[C@@]1(C)C(=O)NCCNC(=O)CCCCCCCCCCBr	cell growth or viability	MTT	48 h			> 30 µM
CC(=O)O[C@H]1C[C@H](O[C@H]2[C@@H](O)C[C@H](O[C@H]3[C@@H](O)C[C@H](O[C@H]4CC[C@@]5(C)[C@H](CC[C@@H]6[C@@H]5CC[C@]5(C)[C@@H](C7=CC(=O)OC7)CC[C@]65O)C4)O[C@@H]3C)O[C@@H]2C)O[C@H](C)[C@H]1O[C@@H]1O[C@H](CO)[C@@H](O[C@@H]2O[C@H](CO)[C@@H](O)[C@H](O)[C@H]2O)[C@H](O)[C@H]1O	cell growth or viability	MTT	48 h			0.25 µM
O=C(N=P12CN3CN(CN(C3)C1)C2)c1cccc[c]1[Au]([Cl])[Cl]	cell growth or viability	MTT	24 h			> 125 µM
COC(=O)[C@@H]1CCCN1C(=O)[C@H](C)N(C)C(=O)OC(C)(C)C	cell growth or viability	SRB				28 µM
O=C1c2cccc3cccc(c23)C12NC(Cc1ccc(O)cc1)C([N+](=O)[O-])C2c1ccc(Cl)cc1 (stereo not shown)	cell growth or viability	MTT	48 h			54.8 µM
Nc1ncnc2c1C(c1cccs1)C1=C(CCCC1=O)O2 (stereo not shown)	cell growth or viability	MTT	72 h			46 µM
O=C1c2ccc3c4cccc5c(N6CCNCC6)ccc(c6ccc(c2c36)C(=O)N1CCN1CCCCC1)c54	cell growth or viability	SRB	72 h			36.9 µM
O=C1N=C(N2N=C(c3cccs3)CC2c2ccc(F)cc2)S/C1=C\c1ccc(Cl)cc1 (stereo not shown)	cell growth or viability	MTT				33.8 µM
O=[N+]([O-])[O-].O=[N+]([O-])[O-].[Cu+2].[Cu+2].c1ccc(-c2nc(-c3ccc4c(c3)OCO4)n[n-]2)nc1.c1ccc(-c2nc(-c3ccc4c(c3)OCO4)n[n-]2)nc1	cell growth or viability	MTT	24 h			5.26 µM
COc1ccc(NC(=O)c2ccc(NC(=O)CN3C(=O)S/C(=C\c4ccccc4OC)C3=O)cc2)cc1	cell growth or viability	MTT				24.8 µM

Compound	effect on	technique	time	notes	added	IC50
CCOC(=O)C1=C(C)NC(=O)N[C@@H]1/C=C/c1ccc(OC)cc1	cell growth or viability	MTT	24 h			7.1 µM
CCCCSc1nc(N)c2c(F)c(F)c(C#N)c(F)c2n1	cell growth or viability	MTT	96 h			70.5 µM
COc1c(O)cc2oc3c(Br)c(O)c(CCC(C)C)c(O)c3c(=O)c2c1CCC(C)C	cell growth or viability		48 h			16.2 µM
COc1ccc(/C=C2\SC(N3N=C(c4ccc(C)cc4)CC3c3ccc(F)cc3)=NC2=O)cc1 (stereo not shown)	cell growth or viability	MTT				11.7 µM
CC(=O)O[C@@H]1CC[C@@]2(C)[C@@H](CC[C@]3(C)[C@@H]2C(=O)C=C2[C@@H]4[C@@H](C)[C@H](C)CC[C@]4(C)CC[C@]23C)[C@@]1(C)C(=O)NCCNC(=O)c1ccccc1	cell growth or viability	MTT	48 h			13 µM
CSc1nc(N)c2c(F)c(C#N)c(F)c(Cl)c2n1	cell growth or viability	MTT	96 h			12.3 µM
CC(C)(C)c1ccc2[c](c1)[Au-]1([Cl])[c]3cc(C(C)(C)C)ccc3-c3cncc-2[n+]31	cell growth or viability	MTS				> 50 µM
O=C(Cn1cc(/C=C/C(=O)c2ccccc2)nn1)Nc1nc(-c2ccccc2)cs1	cell growth or viability	MTT	72 h			0.13 µM
[Cl-].[Cl-].[Ru+2].c1ccc(-c2ccccn2)nc1.c1ccc(-c2ccccn2)nc1.c1ccc(-c2ccccn2)nc1	cell growth or viability		72 h	dark		> 100 µM
COc1ccc(/C=C/C2=[N+]3C(=C(COC(C)=O)c4c(C)cc(/C=C/c5ccc(OC)cc5)n4[B-]3(F)F)C(C)=C2)cc1	cell growth or viability	resazurin		dark		> 100 µM
COc1ccc(NC(=O)N/N=C2\CC3(CCN(C)CC3)Oc3ccccc32)cc1	cell growth or viability	MTT	48 h			29.4 µM
COc1cc(N(C)CCN(C)C)c(NC(=O)/C=C/c2ccc(Cl)cc2)cc1Nc1nccc(-c2cn(C)c3ccccc23)n1	cell growth or viability	MTT	72 h			0.295 µM
S=c1n(-c2ccccc2)c2c3ccccc3nc3[n+]2[n]1[Ir-3]12([S]3)([c]3ccccc3-c3cccc[n+]31)[c]1ccccc1-c1cccc[n+]12	cell viability	MTT		irradiation 450 nm, 15.5 mW/cm^2, 15 min		0.027 ± 0.003 µM
CC(=O)[O-].O.O.O.O.[Ni+2].[O-]c1ccc(Br)cc1C=NCCN1CCOCC1	cell viability	MTT	72 h			24.5 mg/L
C=C1C(=O)C23CCC4C(C)(C)CCCC4(C)C2C(O)CC1C3 (single isomer, unassigned)	cell growth or viability	MTT				3.8 µM
Oc1ncnc2c1sc1sc3c(O)ncnc3c12	cell growth or viability	MTT				4.19 µM
C[OH+][Cu-2]12[O]C(c3cn(-c4ccccc4)nc3-c3ccc(F)cc3)=N[N+]1=C(C)c1c(cc(C)oc1=O)[O]2 (stereo not shown)	cell growth or viability	MTT	48 h			7.4 µM
N#Cc1cccc(-c2ccc(=O)n(Cc3cccc(-c4ncc(OCC5CCN(CC(=O)N6CCN(CCNc7ccc8c(c7)C(=O)N(C7CCC(=O)NC7=O)C8=O)CC6)CC5)cn4)c3)n2)c1 (stereo not shown)	cell growth or viability	CCK-8	72 h			0.665 µM
Cc1cc(C)c(N[C](NCc2ccc(N[C](Nc3c(C(C)C)cccc3C(C)C)=[Pd-]([Cl])([Cl])[C]#[N+]c3c(C(C)C)cccc3C(C)C)cc2)=[Au][Cl])c(C)c1	cell growth or viability					23 µM
COc1ccc(/C=C/C2=[N+]3C(=C(CO)c4c(C)cc(/C=C/c5ccc(OC)cc5)n4[B-]3(C)C)C(C)=C2)cc1	phototoxicity	resazurin			645 nm light, 9.00 J/cm2	1.5 ± 0.4 µM
Cc1cc(C#N)cc(C)c1Oc1cc(Nc2ccc(C#N)cc2)nc2ccncc12			48 h			> 128 µM
Cc1cc(C)c([N+]#[C][Pd-]([Cl])([Cl])=[C](Nc2ccc(CN[C](Nc3c(C(C)C)cccc3C(C)C)=[Au][Cl])cc2)Nc2c(C)cc(C)cc2C)c(C)c1	cell growth or viability					> 100 µM
Cc1ccc(C(C)C)cc1.N=C(N)Nc1nc2ccccc2s1.[Cl-].[Cl][Ru+]	cell growth or viability	MTT	24 h			112 µM
C[C@]12CC/C(=N\OCCN3CCOCC3)C=C1CCC1C2CC[C@]2(C)/C(=C/c3ccccn3)CCC12 (stereo partly shown)	cell growth or viability	MTT	72 h			5.6 µM
C[O][Pt-2]([NH3+])([NH3+])([OH])([Cl])[Cl]	cell growth or viability	MTT	96 h			33 µM
N#Cc1cccc(-c2ccc(=O)n(Cc3cccc(-c4ncc(OCC5CCN(CC(=O)NCCOCCNc6cccc7c6C(=O)N(C6CCC(=O)NC6=O)C7=O)CC5)cn4)c3)n2)c1 (stereo not shown)	cell growth or viability	CCK-8	72 h			3.29 µM
CC(=O)[O][Pt]([Cl])([Cl])[O]C(C)=O.N.N	cell growth or viability					32.3 µM

Excerpt of the above:
Compound	effect on	technique	time	notes	added	IC50
C#Cc1cccc(Nc2ncnc3cc(OCCOC)c(OCCOC)cc23)c1	cell growth or viability	trypan blue				> 20 µM
Brc1ccc(Nc2nc(NN=Cc3c[nH]c4ccccc34)nc(N3CCOCC3)n2)cc1	cell growth or viability	SRB	5 days			0.1 µM
Cc1ccc(S(=O)(=O)c2c(-c3ccccc3)c3c(C)c4ccccc4n3c3ccccc23)cc1	cell growth or viability	MTT	72 h			14.6 µM
COc1ccc(/C=C/C2=[N+]3C(=C(COC(C)=O)c4c(C)cc(/C=C/c5ccc(OC)cc5)n4[B-]3(F)F)C(C)=C2)cc1	cell growth or viability	resazurin		dark		> 100 µM
N#Cc1cccc(-c2ccc(=O)n(Cc3cccc(-c4ncc(OCC5CCN(CC(=O)N6CCN(CCNc7ccc8c(c7)C(=O)N(C7CCC(=O)NC7=O)C8=O)CC6)CC5)cn4)c3)n2)c1 (stereo not shown)	cell growth or viability	CCK-8	72 h			0.665 µM
CCCC(=O)Oc1c(C)c(OC)c2c(/C=C/c3ccccc3)c(CC)c(=O)oc2c1C	cell growth or viability	SRB	72 h			> 50 µM
Cc1ccc(C(C)C)cc1.N=C(N)Nc1nc2ccccc2s1.[Cl-].[Cl][Ru+]	cell growth or viability	MTT	24 h			112 µM
